Assay results gathered from unrelated publications.
Protocols differ between the studies behind these lines. ± marks the error that the study gave.
CXCR4: C-X-C chemokine receptor type 4 (CXCR4, Homo sapiens, UniProt P61073)
CD38: ADP-ribosyl cyclase/cyclic ADP-ribose hydrolase 1 (CD38, Homo sapiens, UniProt P28907)
T1: tetracycline RNA aptamer A55G; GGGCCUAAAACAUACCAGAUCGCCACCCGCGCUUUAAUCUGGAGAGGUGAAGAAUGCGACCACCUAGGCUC

CC(=O)NCCN(CC(=O)NCCN(CC(=O)NCCN(CC(=O)NCCC(N)=O)C(=O)[C@@H](N)CCCCN)C(=O)[C@@H](N)Cc1ccccc1)C(=O)[C@@H](N)Cc1ccccc1 — non-electrostatic ΔG° (HIV-1 TAR RNA; extrapolated to 1 M KCl): -7.266 ± 0.0239 kcal/mol
Nc1cccc2cn[nH]c12 — IC50 (Genome polyprotein, NS3 protease (Hepatitis C virus genotype 1b, UniProt P26663); protease activity, inhibitor): inactive
CC(=O)NCCN(CC(=O)NCCN(CC(=O)NCCN(CC(=O)NCCC(N)=O)C(=O)[C@@H](N)CCCNC(=N)N)C(=O)[C@@H](N)CCCCN)C(=O)[C@@H](N)Cc1ccccc1 — binding free energy ΔG° (HIV-1 TAR RNA; 25 °C): -8.29 ± 0.717 kcal/mol
CCc1nc2cc3ccccc3cc2cc1C(=O)N[C@@H](CCCCN)C(=O)N[C@@H](C/C=C/C[C@H](NC(=O)[C@H](CCCCN)NC(=O)c1cc2cc3ccccc3cc2nc1CC)C(=O)N1CCC[C@H]1C(=O)NCCCN)C(=O)N1CCC[C@H]1C(=O)NCCCN — residence time (HIV-1 frameshift site RNA; SPR): 347 s
O=C([O-])CN1CCN(CC(=O)[O-])CCN(C(CCC(=O)NCCCCCN(CCCC[C@H](NC(=O)N[C@@H](CCC(=O)O)C(=O)O)C(=O)O)C(=O)c2ccc(I)cc2)C(=O)O)CCN(CC(=O)[O-])CC1.[68Ga+3] (stereo partly shown) — tumour-to-normal tissue ratio (Glutamate carboxypeptidase 2 (FOLH1, Homo sapiens, UniProt Q04609); PET/CT; prostate cancer patients, primary prostate cancer lesions; relative to: primary lesions over liver): 8.36 ± 7.84
CCCCCCCC/C=C\CCCCCCCC(=O)O[C@@H]1C=CCO[C@@H]1COP(=O)(O)S (stereo partly shown) — Emax (Lysophosphatidic acid receptor 6 (Homo sapiens, UniProt P43657); agonist, TGFα shedding): 32%
CNc1ccccc1C(=O)O[C@H]1C[C@H](n2cnc3c(N)ncnc32)O[C@@H]1COP(=O)(O)OP(=O)(O)O — association rate constant (Unconventional myosin-Va (Gallus gallus, UniProt Q02440, D297C/G292C/I296C/S293C/V295G); stopped-flow FRET; 25 °C, with: EDTA 4 mM): 1.21e+07 ± 1.61e+06 M⁻¹ s⁻¹
COc1ccccc1-c1nnc2n1N=C(c1ccc(N(C)C)cc1)CS2 — Emax (CXCR4; β-arrestin recruitment, agonist; U2OS): ~25%
CC(=O)NCCN(CC(=O)NCCN(CC(=O)NCCN(CC(=O)NCCC(N)=O)C(=O)C[C@@H](N)Cc1ccccc1)C(=O)C[C@@H](N)CCCNC(=N)N)C(=O)C[C@@H](N)Cc1ccccc1 — binding free energy ΔG° (HIV-1 TAR RNA; 25 °C): -8.91 ± 0.287 kcal/mol
CCCCCCCC(=O)Nc1ccc(OC)nc1 — specific activity (Liver carboxylesterase 1 (CES1, Homo sapiens, UniProt P23141); substrate; 50 µM, pH 8, 37 °C, enzyme purity 25%): 24 pmol/min/µg
C=CCC1NC(=O)C=CC(=O)NC(C(N)=O)CCNC(=O)C(CCCNC(=O)c2cnccn2)NC(=O)C(Cc2ccco2)NC1=O (stereo not shown) — enrichment factor (Mitogen-activated protein kinase 14 (MAPK14, Homo sapiens, UniProt Q16539); DNA-templated library selection; one selection round): 1
CC1=CC(C)(C)N=C(Nc2nc(-c3ccccc3)c3ccccc3n2)N1 — remaining activity (CD38; cyclase activity, fluorometric; 50 µM, with: NGD+ substrate; relative to: untreated): 57 ± 4%
CC12CC(c3ccc(C(=O)CO)cc3)C3=C4CCC(=O)C=C4CCC3C1CCC2(O)C(F)(F)C(F)(F)F (stereo not shown) — fully effective dose (Progesterone receptor (Rattus norvegicus, UniProt Q63449); pregnancy termination; rat, early pregnancy; oral): 1.5 mg/kg
COc1cc(-c2nc3ccc(C(=O)NCCCN(C)C)cc3n2C2CCC2)cc(OC)c1OC — target occupancy (Serine/threonine-protein kinase 36 (STK36, Homo sapiens, UniProt Q9NRP7); NanoBRET; 1 µM): 20.2%
Cc1cc(=O)oc2cc3c(c(C)c12)C(=O)c1c(O)cccc1C3=O — inhibition (mushroom tyrosinase; enzyme activity; 25 µg/mL, with: L-DOPA): 21.7 ± 0.65%
CSCC[C@H](NC(=O)[C@H](CO)NC(=O)[C@H](CC(N)=O)NC(=O)[C@H](CC(C)C)NC(=O)[C@H](Cc1c[nH]cn1)NC(=O)[C@H](CCCCN)NC(=O)CNC(=O)[C@H](CCCCN)NC(=O)[C@H](CC(=O)O)NC(=O)[C@H](Cc1c[nH]cn1)NC(=O)[C@H](CC(C)C)NC(=O)[C@H](CC(C)C)NC(=O)[C@H](CCC(N)=O)NC(=O)[C@H](Cc1c[nH]cn1)NC(=O)[C@H](CCC(=O)O)NC(=O)[C@H](CO)NC(=O)[C@@H](NC(=O)[C@H](C)N)C(C)C)C(=O)N[C@@H](CCC(=O)O)C(=O)N[C@@H](CCCNC(=N)N)C(=O)N[C@H](C(=O)N[C@@H](CCC(=O)O)C(=O)N[C@@H](Cc1c[nH]c2ccccc12)C(=O)N[C@@H](CC(C)C)C(=O)N[C@@H](CCCNC(=N)N)C(=O)N[C@@H](CCCCN)C(=O)N[C@@H](CCCCN)C(=O)N[C@@H](CC(C)C)C(=O)N[C@@H](CCC(N)=O)C(=O)N[C@@H](CC(=O)O)C(=O)N[C@H](C(=O)N[C@@H](Cc1c[nH]cn1)C(=O)N[C@@H](CC(N)=O)C(=O)N[C@@H](Cc1ccccc1)C(=O)N[C@@H](CCCCNC(=O)c1ccc2c(c1)C1(OC2=O)c2ccc(N(C)C)cc2Oc2cc(N(C)C)ccc21)C(N)=O)C(C)C)C(C)C — koff (Parathyroid hormone/parathyroid hormone-related peptide receptor (PTH1R, Homo sapiens, UniProt Q03431); binding, NanoBRET; HEK293): 0.029 ± 0.009 s⁻¹
CN1C[C@H](c2cccc(C(F)(F)F)c2)[C@@H](C(=O)Nc2ccccc2F)C1=O — alpha factor of Ki (PYRD (Oryza sativa, UniProt Q7XKC8); mixed-type inhibitor; with: decylubiquinone): 9.5 ± 2.4
CN1C(=O)[C@@H](Cc2ccc(O)cc2)NC(=O)CNC(=O)[C@H](Cc2ccc3ccccc3c2)NC(=O)[C@H](CCCNC(=N)N)NC(=O)[C@H]1CCCNC(=O)c1ccc(CNC(=O)CN2CCN(CC(=O)O)CCN(CC(=O)O)CCN(CC(=O)O)CC2)cc1 [gallium-68 labelled] — SUVmax (CXCR4; PET/CT; human, left adrenal lateral limb nodule; 185 MBq, 50 min): 23
COc1cc(C(=O)NC2CCC(N3CCN(CC4CCC5(CCCC5)C4)CC3)CC2)c(F)cc1Nc1ncc2c(n1)N(C1CCCC1(F)F)CC(F)(F)C(=O)N2C (stereo not shown) — inhibition (Tyrosine-protein kinase Yes (YES1, Homo sapiens, UniProt P07947); cell-free assay, TR-FRET; 10 µM): 0.2%
NC/C(=C\F)COc1ccc(Cl)c(-c2cc(=O)[nH]c(=S)n2CC(N)=O)c1 — potency ratio (Amine oxidase [copper-containing] 3 (AOC3, Homo sapiens, UniProt Q16853); enzyme activity, Amplex Red H2O2; relative to: PXS-4728 over compound): > 1000 fold
CC(C)C[C@H](NC(=O)[C@H](CCCNC(=N)N)NC(=O)[C@H](Cc1ccc(O)cc1)NC(=O)CCCCCCC(=O)N[C@@H](Cc1ccc(O)cc1)C(=O)N[C@@H](CCCNC(=N)N)C(=O)N[C@@H](CC(C)C)C(=O)NN(CCCNC(=N)N)C(=O)N[C@@H](Cc1ccc(O)cc1)C(N)=O)C(=O)NN(CCCNC(=N)N)C(=O)N[C@@H](Cc1ccc(O)cc1)C(N)=O — intrinsic activity (Neuropeptide Y receptor type 4 (NPY4R, Homo sapiens, UniProt P50391); β-arrestin-1 recruitment, agonist; HEK293T; concentration not given, unit not given; relative to: 1 µM human pancreatic polypeptide): 0.09
CC(=O)NCCN(CCC(=O)NCCN(CCC(=O)NCCN(CCC(=O)NCCC(N)=O)C(=O)[C@@H](N)Cc1ccccc1)C(=O)[C@@H](N)Cc1ccccc1)C(=O)[C@@H](N)CCCNC(=N)N — heat capacity change ΔCp (HIV-1 TAR RNA; concentration not given): -2 ± 0.4 kJ/mol/K
CC[C@H](C)[C@H](NC(=O)[C@@H](NC(=O)[C@H](CC(C)C)NC(=O)[C@H](CCC(=O)O)NC(=O)[C@H](CCC(=O)O)NC(=O)[C@H](CCC(N)=O)NC(=O)[C@@H]1CCCN1C(=O)[C@H](CC(=O)O)NC(=O)[C@H](COP(=O)(O)O)NC(=O)CNC(=O)[C@H](Cc1ccc(O)cc1)NC(=O)[C@@H](N)CC(C)C)[C@@H](C)CC)C(=O)O — binding fold increase (Partitioning defective 3 homolog, PDZ3 domain (Pard3, Mus musculus, UniProt Q99NH2); fluorescence polarization; concentration not given; relative to: long VE-cadherin construct): ~2 fold
O=C1CC[C@H](N2Cc3cc(-c4cnn5ccc(NC6CCCCC6)nc45)ccc3C2=O)C(=O)N1 — Dmax (Cereblon/Casein kinase I alpha (CSNK1A1/CRBN, Homo sapiens, UniProt P48729+Q96SW2); protein level, degrader, luciferase; MOLT-4): 9%
C=C1C(=O)O[C@@H]2[C@H]3C(CO)=CC(=O)C3=C(C)C[C@H](O)[C@@H]12 — random coil content (Alpha-glucosidase MAL12 (MAL12, Saccharomyces cerevisiae S288c, UniProt P53341); circular dichroism; 65.22 µM): 32.9%
C=C[C@]12CCC(=O)C=C1CC[C@H]1[C@@H]3CC[C@H](C(C)=O)[C@@]3(C)CC[C@@H]12 — PKA activation (Membrane progesterone receptor epsilon (Paqr9, Mus musculus, UniProt Q6TCG2); pPKA/PKA immunoblot; MDA-MB-231 expressing Paqr9-GFP; 30 nM, 20 min; relative to: control): 156 ± 18%
CCc1cc(C)n2nc(-c3ccc(OCC[18F])cc3)c(CC(=O)N(CC)CC)c2n1 — K1 influx rate constant (Translocator protein (Tspo, Rattus norvegicus, UniProt P16257); two-tissue compartment model; rat C6 glioma model, brain; 60 min dynamic PET): 6.26 ± 1.13 mL/cm3/min
C=CCC1C(=O)C=C(OC)C2(OC)C(C)C(c3ccc4c(c3)OCO4)OC12 (single isomer, unassigned; (-)) — transcriptional activity (FXR L287N, L348N, I352N, W454H; reporter gene; HEK293T; concentration not given; relative to: wild type): decreased
CCN(CCCC[C@H](NC(=O)[C@H](Cc1ccc(OC)c(OC)c1)NC(=O)[C@H](C)NC(=O)[C@H](CC1CCCCC1)NC(=O)c1ccc(Br)c(N)c1)C(=O)N[C@@H](CO)C(=O)OC)C(C)C — competition of probe pulldown (Chromobox protein homolog 5 (Homo sapiens, UniProt P45973); binding, measured: CBX5; HEK-293T cell lysate; concentration not given): inhibited
CC1=CC(C)(C)N=C(Nc2nc(C)c3cc(C)cc(C)c3n2)N1 — remaining activity (CD38; hydrolase activity, fluorometric; 50 µM, with: ε-NAD+ substrate; relative to: untreated): 22.7 ± 0.4%
Nc1ncnc2c1ncn2[C@@H]1O[C@H](CO)[C@@H](O[C@H]2O[C@H](CO)[C@@H](OP(=O)(O)O)[C@H](OP(=O)(O)O)[C@H]2O)[C@H]1O — Hill coefficient (Inositol 1,4,5-trisphosphate-gated calcium channel ITPR1 (Itpr1, Rattus norvegicus, UniProt P29994, del318-332/R504Q); Ca2+ release, agonist; permeabilized DT40 cells): 1.9 ± 0.4
CN(C)[C@@H]1C(=O)C(C(N)=O)=C(O)[C@@]2(O)C(=O)C3=C(O)c4c(O)cccc4[C@@](C)(O)[C@H]3C[C@@H]12 — Kd (T1, tetracycline RNA aptamer A55G; ITC; pH 7.5, 25 °C, MgCl2 10 mM): 7.19 nM
C=C(NC(=O)C(=C)NC(=O)c1csc(C2=NC3c4csc(n4)C4NC(=O)c5csc(n5)C(C(C)(O)C(C)O)NC(=O)C5CSC(=N5)C(=CC)NC(=O)C(C(C)O)NC(=O)c5csc(n5)C3(CC2)NC(=O)C(CCC(N)=O)NC(=O)C(=C)NC(=O)C(C)NC(=O)C(C(C)CC)NC2C=Cc3c(C(C)O)cc(nc3C2O)C(=O)OC4C)n1)C(N)=O (stereo not shown) — fold loss of potency (Proteasome subunit beta type-7, in 20S proteasome (PSMB7, Homo sapiens, UniProt Q99436); trypsin-like activity, inhibitor; with: Boc-Leu-Arg-Arg-AMC; relative to: thiostrepton A): ≥ 11 fold
CC(=O)NCCN(CC(=O)NCCN(CC(=O)NCCN(CC(=O)NCCC(N)=O)C(=O)C[C@@H](N)CCCCN)C(=O)C[C@@H](N)Cc1ccccc1)C(=O)C[C@@H](N)Cc1ccccc1 — non-electrostatic ΔG° (HIV-1 TAR RNA; extrapolated to 1 M KCl): -7.72 ± 0.0956 kcal/mol

Repeated from above:
CN1C(=O)[C@@H](Cc2ccc(O)cc2)NC(=O)CNC(=O)[C@H](Cc2ccc3ccccc3c2)NC(=O)[C@H](CCCNC(=N)N)NC(=O)[C@H]1CCCNC(=O)c1ccc(CNC(=O)CN2CCN(CC(=O)O)CCN(CC(=O)O)CCN(CC(=O)O)CC2)cc1 [gallium-68 labelled] — SUVmax (CXCR4; PET/CT; human, left adrenal lateral limb nodule; 185 MBq, 50 min): 23
CN(C)[C@@H]1C(=O)C(C(N)=O)=C(O)[C@@]2(O)C(=O)C3=C(O)c4c(O)cccc4[C@@](C)(O)[C@H]3C[C@@H]12 — Kd (T1, tetracycline RNA aptamer A55G; ITC; pH 7.5, 25 °C, MgCl2 10 mM): 7.19 nM
C=C1C(=O)O[C@@H]2[C@H]3C(CO)=CC(=O)C3=C(C)C[C@H](O)[C@@H]12 — random coil content (Alpha-glucosidase MAL12 (MAL12, Saccharomyces cerevisiae S288c, UniProt P53341); circular dichroism; 65.22 µM): 32.9%
CC1=CC(C)(C)N=C(Nc2nc(C)c3cc(C)cc(C)c3n2)N1 — remaining activity (CD38; hydrolase activity, fluorometric; 50 µM, with: ε-NAD+ substrate; relative to: untreated): 22.7 ± 0.4%
Nc1ncnc2c1ncn2[C@@H]1O[C@H](CO)[C@@H](O[C@H]2O[C@H](CO)[C@@H](OP(=O)(O)O)[C@H](OP(=O)(O)O)[C@H]2O)[C@H]1O — Hill coefficient (Inositol 1,4,5-trisphosphate-gated calcium channel ITPR1 (Itpr1, Rattus norvegicus, UniProt P29994, del318-332/R504Q); Ca2+ release, agonist; permeabilized DT40 cells): 1.9 ± 0.4
